Results gathered from unrelated publications.
Lines come from different studies, so protocols differ. Several values in a cell are separate wells, animals, samples, runs or records. Numbers after ± are the reported error.
Chain of UniProt Q7KZI7 (whole entry, looked up): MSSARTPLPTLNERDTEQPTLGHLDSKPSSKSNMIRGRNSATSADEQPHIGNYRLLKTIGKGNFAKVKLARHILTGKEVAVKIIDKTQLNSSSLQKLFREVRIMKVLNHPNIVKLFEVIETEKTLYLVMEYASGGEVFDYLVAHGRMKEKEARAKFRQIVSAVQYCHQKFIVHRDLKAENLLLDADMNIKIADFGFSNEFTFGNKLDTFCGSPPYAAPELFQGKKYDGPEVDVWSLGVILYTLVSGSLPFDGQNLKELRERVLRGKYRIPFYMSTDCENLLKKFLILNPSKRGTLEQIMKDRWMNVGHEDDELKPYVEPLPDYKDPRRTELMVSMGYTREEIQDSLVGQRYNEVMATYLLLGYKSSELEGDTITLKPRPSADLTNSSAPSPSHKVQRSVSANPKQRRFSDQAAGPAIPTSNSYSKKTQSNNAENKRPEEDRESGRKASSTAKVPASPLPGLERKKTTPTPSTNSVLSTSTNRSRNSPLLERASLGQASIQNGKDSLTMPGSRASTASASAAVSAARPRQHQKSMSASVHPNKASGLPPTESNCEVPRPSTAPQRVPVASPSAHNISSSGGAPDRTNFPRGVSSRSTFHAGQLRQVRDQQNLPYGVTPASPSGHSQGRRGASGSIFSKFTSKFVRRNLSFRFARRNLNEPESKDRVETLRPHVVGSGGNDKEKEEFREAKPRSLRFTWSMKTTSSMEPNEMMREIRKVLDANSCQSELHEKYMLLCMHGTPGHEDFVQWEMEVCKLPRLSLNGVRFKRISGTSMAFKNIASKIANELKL

SMILES | tested on | assay | system | conditions | how to read | measurement | result
CC(C)=CCc1cc(C(=O)/C=C/c2ccc(O)cc2)c(O)cc1O | – | phase I metabolism, substrate | dog liver microsomes | – | – | Km | 1.58 ± 0.22 µM
C[n+]1ccc(/C=N/NC(=O)c2cncc(C(=O)N/N=C/c3cc[n+](C)c4ccccc34)n2)c2ccccc21 | human telomeric G-quadruplex DNA | UV melting | – | 6 µM, 100 mM potassium, together with: DNA 3 µM | – | delta Tm | 21.8 °C
O=C(NCc1ccc2c(c1)CN(C(=O)c1cc(-c3ccccc3)no1)C2)C1C=CC=CC=C1 | FSP1, ancestral | resazurin reduction, inhibitor | – | pH 7.2, together with: NADH, resazurin | – | IC50 | 0.443 ± 0.22 µM
Nc1ncc(-c2cc(-c3cnn(CC(F)(F)F)c3)ncc2F)nc1C(=O)NC1CNCC(F)C1 (stereo not drawn) | FLT3 | KINOMEscan | – | 1 µM | relative to: DMSO control | remaining binding | 84%
COC1CN([C@H]2CC[C@H]([C@@]3(C)Oc4c(Cl)cc(C(=O)NCc5c(SC)cc(C)[nH]c5=O)c(C)c4O3)CC2)C1 | – | RNA-seq, refers to: CKB mouse homolog | mouse, HT-1376 xenograft, whole blood | dose not given | relative to: vehicle | log2 fold change | 0.0761
CCN(CC)CC(=O)Nc1cccc(-n2cc(-c3ccc4ccc(-c5cn(-c6cccc(NC(=O)CN(CC)CC)c6)nn5)cc4c3)nn2)c1 | RCC4 | PCR angiogenesis array, refers to: S1PR1 | – | 5 x IC50, 2 h, normoxia | relative to: untreated | fold regulation | 2.4
CNS(=O)(=O)Nc1nccc(Cc2c(C)c3ccc(Oc4ncccc4F)cc3oc2=O)c1F | RBE | cell viability | – | 7 days | – | IC50 | 0.025 µM
Cn1c(=O)[nH]c(=O)c2c1nc(CN1CCN(c3cccc(Cl)c3)CC1)n2Cc1cccc(Cl)c1 | PLC-gamma1 rat | – | HEK293-A overexpressing PLC-gamma1 | 50 µM, 2 h | – | IP1 accumulation increase | > 20%
c1ccc(-c2n[nH]cc2-c2ccnc3ccccc23)nc1 | KNS1 (Candida albicans) | kinase binding, MIB/MS competition | Candida albicans lysate | 1 µM | relative to: DMSO | log2 fold change | 0.02
CC[C@H](C)[C@H](NC(=O)[C@H](CC(C)C)NC(=O)[C@H](C)NC(=O)[C@H](C)NC(=O)[C@@H]1CCCN1C(=O)[C@@H](NC(=O)[C@H](C)N)C(C)C)C(=O)N[C@@H](CC(C)C)C(=O)N[C@@H](CCCNC(=N)N)C(=O)N[C@@H](CCC(=O)O)C(=O)N[C@@H](CCCCN)C(=O)N[C@@H](CCCCN)C(=O)N[C@@H](CCCCN)C(=O)N[C@@H](CCCCNC(=O)CCCCCNC(=S)Nc1ccc2c(c1)C(=O)OC21c2ccc(O)cc2Oc2cc(O)ccc21)C(N)=O | XIAP (human) | DIABLO peptide pull-down | – | concentration not given, 100-fold competition | relative to: empty beads | log2 fold change | 7.92
CCC(=O)N(C)c1ccc(Cl)c(Cl)c1 | alpha 2 adrenergic receptor | binding, radioligand binding | – | 10 µM | – | inhibition | < 10%
Fc1ccc(Nc2nc(NC3CCCCC3)c3cc(Br)ccc3n2)cc1F | β2AR/β1AR ECL3 chimera | β-arrestin2 recruitment, antagonist, BRET | – | – | relative to: isoprenaline maximal response | maximal inhibition | -0.8%
OB1c2sccc2C=NN1Cc1ccccc1 | human pancreatic trypsin | enzyme activity, inhibitor | – | – | – | IC50 | > 100 µM
C=C(NC(=O)c1csc(-c2nc3c(cc2O)-c2nc(cs2)C(=O)NC(C(C)O)C(=O)NC(=C(C)OC)c2nc(cs2)C(=O)NC2c4nc(cs4)C(=O)NC(COC(=O)c4c5c6c(cccc6n4O)COC(=O)C(OC4CC(C)(O)C(N(C)C)C(C)O4)C2OC5)c2nc-3cs2)n1)C(N)=O (stereo not drawn) | Streptococcus pneumoniae | – | -4, immunocompromised mice, lung infection | 4 mg/kg/day, twice daily, 24 h post-dose | – | lung bacterial load | 6.18 log CFU/g
NCCOc1cc(NC(=O)c2cc(Cl)cc(C(=O)Nc3cc(OCCN)c4ccccc4n3)n2)nc2ccccc12 | human telomeric G-quadruplex DNA | FRET melting | – | 1 µM, pH 7.4, together with: 60 mM potassium | – | ΔTm | 36.5 ± 0.9 K
O=C1CO[C@H](CNC(=O)C2(c3ccc(Cl)cc3)CC2)CN1C1Cc2ccccc2C1 | human CCR6 thermostabilised | thermal shift | – | 10 µM | – | ΔTm | 3.2 °C and 4.1 °C and 4 °C and 3.3 °C and 4.8 °C
CC(C)(CO)Cc1cn(C2CCCN(C(=O)c3ccc4c(c3)CCOC4(C)C)CC2)nn1 (stereo not drawn) | FSP1, ancestral | resazurin reduction, inhibitor | – | pH 7.2, together with: NADH, resazurin | – | IC50 | 6.43 ± 0.1 µM
Fc1ccc(Nc2nc(NC3CCCCC3)c3cc(C(F)(F)F)ccc3n2)cc1F | β2AR/β1AR ECL3 chimera | β-arrestin2 recruitment, antagonist, BRET | – | – | relative to: isoprenaline maximal response | maximal inhibition | -3.1%
C[n+]1cc(NC(=O)c2ccc3ccc4ccc(C(=O)Nc5cc6ccccc6[n+](C)c5)nc4c3n2)cc2ccccc21 | human telomeric G-quadruplex DNA | UV melting | – | 3 µM, 100 mM potassium, together with: DNA 3 µM | – | delta Tm | 3.2 °C
C=CC(=O)Nc1cccc(Cn2ncc3cnc(Nc4cnn(CCOC)c4)nc32)c1 | LTK human | binding, KINOMEscan | – | 100 nM | lower = stronger binding | percent of control | 100%
C=CC(=O)N1[C@@H](c2ccc3c(c2)OCO3)c2[nH]c3ccccc3c2C[C@H]1C(=O)N1CCN(C)CC1 | human cyclin E1 N112C-3xFLAG:CDK2 | co-IP with TMT proteomics, refers to: HSPA9 | – | concentration not given, P38646 | relative to: wild type DMSO | relative co-enrichment | 102%
Cc1nn(-c2cccc(N)c2)c(=O)c2cnc(Nc3ccc(N4CCNCC4)cc3)nc12 | Serine/threonine-protein kinase MARK2 (MARK2, Homo sapiens, UniProt Q7KZI7) | enzyme activity, inhibitor | – | – | – | IC50 | > 10 µM
CN1CCCNC(=O)c2cccc(c2)C(=O)NCCCN(C)CCCNc2cccc3c2C(=O)c2cccc(c2C3=O)NCCC1 | SAS | RNA-Seq, refers to: SLC25A46 mRNA | – | 1 µM, 6 h | relative to: untreated cells | log2 fold change | -0.809
Cc1ncsc1-c1ccc(C(C)NC(=O)C2CC(O)CN2C(=O)C(NC(=O)CCCCCCCCCCN2CCCC(Nc3ncc(Cl)c(Nc4ccccc4S(=O)(=O)C(C)C)n3)C2)C(C)(C)C)cc1 (stereo not drawn) | 22Rv1 | RNA-seq, refers to: ZNF319 mRNA | – | concentration not given | relative to: DMSO | log2 fold change | -1.91
